# Results of several laboratories.
# Every numbered part comes from another study and shows a few of its results, in no order.

# Block 1 — method: competition protein-binding microarray; molecule type: double-stranded DNA, one strand shown; medium: in vitro; concentration: 2 µM; together with: Cbf1 competitor, 0.05 µM; reading: higher = stronger binding; constant ends, left off below: … GTCTTGATTCGCTTGACGCTGCTG
# Target: Phosphate system positive regulatory protein PHO4, full length, GST-tagged (PHO4, Saccharomyces cerevisiae, UniProt P07270, residues 1-312)
# Setting: whole 60-bp probe, lowest competitor level
# Construct (chain): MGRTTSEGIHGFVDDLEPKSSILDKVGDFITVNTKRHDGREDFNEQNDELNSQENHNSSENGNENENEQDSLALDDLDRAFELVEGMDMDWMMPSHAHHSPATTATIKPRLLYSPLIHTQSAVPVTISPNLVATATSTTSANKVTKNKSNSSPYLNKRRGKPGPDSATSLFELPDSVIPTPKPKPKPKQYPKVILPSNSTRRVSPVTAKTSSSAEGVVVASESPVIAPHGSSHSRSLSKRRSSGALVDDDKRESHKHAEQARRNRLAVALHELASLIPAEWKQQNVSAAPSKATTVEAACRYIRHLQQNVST
Strand,fluorescence intensity [a.u.]
TTTTTCCAAGAGCTTCATATGCAAGCCCGAATCATT,3010
TTTTTCCTAACTTGCGACATGACAGAGCTTAAGGAC,4560
AAAGCGGTAATTTGTCACTTCACTTCACATATCTAT,3590
AGTAAAAGACGAAAGCACGTTAACAATGGAACACTC,7980
TGAGTACTATGTTATCAGGTGCTGCTGTTATGGATG,5960
GAACAATGGAATAAGCTCGTGAGATTCCTTAACTTT,5860
GATTGATTTTTGCGACTCTTGCGGAAAGGTTCGCCG,2890
TTCAATGAAATTCGTCACGTCTCTGAGTTTCCTGAG,4610
TGCGCAACAACTTTTCACGTGTCCTTATGTCTAGAA,14800
TTTTTGTAGAATGTACGCGTGATGGCAGTGCCCTGC,7500
AAAGCGGTAATTTGTCACAGGACTTCACATATCTAT,3310
GTCTTGTCTCATTGAGCTGTGGGTGTCCCCACTTCA,4440
GCTTTCAGGCACTAAGACGTGCAAAGATATAAGCCA,5120
TTATCAAGAAACCGTCACAGAAGGAGCTCACTCTGG,2690
TAAGTTGTCAGGTTTCACGTGGCAACTACAAGAAAA,12900
ACTTTCATTTGATGAAACGTGAAACTCTAATTAAGA,9440
GAAAACCTGGCTTGACTCGTGATGGCTTATTTAACG,6460
TCGTCAGGACAAATGAACGTGGTCGATCCTCCGCCG,11000
AAATTACTAAGTTGTCACATAACTTACCCCGTATGA,3640

# Block 2 — method: protein binding microarray; molecule type: double-stranded DNA, one strand shown; medium: in vitro; concentration: not given; baseline: not given; reading: higher = stronger binding
# Target: Histone acetyltransferase KAT6A, winged helix 1, GST fusion (KAT6A, Homo sapiens, UniProt Q92794, residues 1-85)
# Setting: 8-mer, flanks averaged, mean of 2 arrays, mostly near background
# Target sequence (chain): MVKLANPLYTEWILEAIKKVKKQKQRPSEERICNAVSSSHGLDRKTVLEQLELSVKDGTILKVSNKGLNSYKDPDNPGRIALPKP
Strand,E-score
TTATACAA,-0.113
CAGGCAAC,-0.173
AGAAGGCT,-0.266
CCATAACC,-0.11
GAAGCCTC,-0.0268
CTCTGAAC,-0.0711
ACCTGCTA,-0.00376
GGGGTACC,0.0367
AGGGCCTA,-0.113
ATATAGGA,-0.164
TGCAGGAA,-0.254
CCAGATCG,-0.0244
CGTGTCCA,-0.0199
TCGCCGCA,0.334
ATGCGCAT,0.258
AGCCGCGC,0.441
TCCGACCA,0.088
TCGTAGCA,-0.188
AAGCTGGA,-0.138
AGGAAACT,-0.241
AATTTACT,-0.038
GCATCGAA,-0.05
AAACCAAA,-0.151
CATTCCAA,-0.0402
CCATGAGG,0.0716

# Block 3 — method: protein-binding microarray; molecule type: double-stranded DNA, one strand shown; medium: in vitro; concentration: 2200 nM top; setting: 60-bp whole probe; together with: salmon DNA 0.4 mg/ml; baseline: random background probes; reading: higher = stronger binding; constant ends, left off below: GCCTAGCAC … GTCTTGATTCGCTTGACGCTGCTG
# Target: Interferon regulatory factor 7, full length, phosphomimetic (IRF7, Homo sapiens, UniProt Q92985, residues 1-503, S471D/S472D/S475D/S476D/S477D/S483D/S484D/S487D)
# Construct (chain): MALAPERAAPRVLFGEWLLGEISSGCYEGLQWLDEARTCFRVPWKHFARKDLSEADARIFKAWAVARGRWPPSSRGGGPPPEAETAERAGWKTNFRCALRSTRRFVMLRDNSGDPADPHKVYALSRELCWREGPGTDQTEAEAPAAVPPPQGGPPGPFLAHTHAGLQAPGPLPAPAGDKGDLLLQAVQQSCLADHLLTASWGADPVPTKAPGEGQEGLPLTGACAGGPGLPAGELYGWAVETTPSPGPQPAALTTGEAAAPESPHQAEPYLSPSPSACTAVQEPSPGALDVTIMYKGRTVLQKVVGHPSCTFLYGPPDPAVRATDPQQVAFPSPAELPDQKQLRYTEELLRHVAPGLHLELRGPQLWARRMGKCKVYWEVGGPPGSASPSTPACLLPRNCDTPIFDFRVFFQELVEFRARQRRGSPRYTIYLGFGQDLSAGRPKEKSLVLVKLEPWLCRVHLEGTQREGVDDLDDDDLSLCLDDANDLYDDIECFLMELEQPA
Strand,fitted relative affinity
TTACAACTGAGTCTCGATTAGTGCTAG,0.518 z-score
GTTTGTCCCTATTTAAGATAGTGCTAG,1.93 z-score
TCACCTTTGAAAGTTGTTACTGTGCTA,0.9 z-score
GAAGGTCTCCTTTTCCTGACGTGCTAG,1.28 z-score
TCAATTGTGGCTTTTTAACTGTGCTAG,0.335 z-score
GACGGTTTCGACTATCGCGACGTGCTA,3.41 z-score
AACGAACTGAGTATCGAGACGTGCTAG,-0.128 z-score
GACGGTTTCCTTCACCTGACGTGCTAG,1.95 z-score
TTTTCATTTTTTTTCATCATGTGCTAG,3.69 z-score
TTAGGTATCTTTCTCCTTTAGTGCTAG,1.11 z-score
CTAGGTCTCCTTATCCTTTAGTGCTAG,0.921 z-score
GACGGACTGGACTTGCGGGACGTGCTA,-0.886 z-score
TTAGATATCGGTCTCGGTTAGTGCTAG,0.661 z-score
TTAGATATCAGTATCGATCAGTGCTAG,0.0665 z-score
GACGGTATCGGTCTCGGAACGTGCTAG,0.304 z-score
TTAGGTATCCTTATCGTTTAGTGCTAG,0.878 z-score
GACAGTCTCCTTCTCCTGACGTGCTAG,1.18 z-score
TTAGGTATCCTACTGCTCTAGTGCTAG,0.545 z-score
TTAGGTTTCGGCCTCGGTTAGTGCTAG,3.21 z-score

# Block 4 — method: RNA Bind-n-Seq; molecule type: RNA; medium: in vitro; concentration: 200 nM; setting: whole 134-nt RNA, ends assumed; together with: 150 mM LiCl; baseline: input library; reading: higher = stronger binding; all molecules: 7-deaza-guanosine replaces G
# Target: Fragile X messenger ribonucleoprotein 1, C-terminal low-complexity region (Fmr1, Mus musculus, UniProt P35922)
# Constant ends, left off below: GGGAGUUCUACAGUCCGACGAUC … UGGAAUUCUCGGGUGUCAAGG
Strand,log2 enrichment
ACCAUGCAGGUGGGCAUCUUUGGUAAGUGGGGCAAGGGGGGGAUAGGGAGGGGGGUAACACUUUGGGAACAGGUGGUCCCAGGUCGUUUC,1.38
UUUGAAGAUCAGCUUCAGCAAUGGUUGUCUGAAGACUCAGGAGCAUUUACGGAUUUAACUUCCCUUCCCCUCUAUCUUCCUCAGACUCUA,0.766
UGGGAGGUGGAUUUUGUUUAUUUUUUUAGCUCAUUUCCAGGGGUGGGAAUUUUUUUUUAAUAUGUGUUAUGAAUAAAGUUGUUUUUGAAA,-0.184
UAGUGAAAUUUCUAAUAUAUAUAUUUUUUUCUUUAGGAGAAGAAACGAAUGCAUCAGAUCAACAGAAUGAACCCCAGUUAGGCCUGAAAG,-2.53
AGUCCUGUGCUACACAUCGUAUGUACCGAAUCGGUUUUUGGGUUUUUGGUUUUUGGGAAAGUAUUAUGUUACGCCGUUCGGAUCUGCACU,-1.93
CAAGUCCUGUGCUACACAUCGUAUGUACCGAAUCGGGAAAGGGGAAAGGAAAGGGGAAAGUAUUAUGUUACGCCGUUCGGAUCUGCACUU,-0.711
UGGCCCUGGUGGCAUGCGGGGAGGAAGAGGUGGCCUCAUGGAUCGUGGUGGUCCCGGUGGAAUGUUGAGAGGUGGCCGUGGUGGAGACAG,0.00983
UCCUGUGCUACACAUCGUAUGUACCGAAUCGGGCCCCCGGGGCCCCCGGGGCCCCCGGGAAAGUAUUAUGUUACGCCGUUCGGAUCUGCA,-1.54

# A few entries again (block 2):
Strand,E-score
TCGCCGCA,0.334
ATGCGCAT,0.258
AGCCGCGC,0.441
TCCGACCA,0.088
TCGTAGCA,-0.188
AAGCTGGA,-0.138
AGGAAACT,-0.241
AATTTACT,-0.038
GCATCGAA,-0.05
AAACCAAA,-0.151
